Results pooled from the literature.
A part holds a random share of what one study measured. Several values in a cell are separate wells, animals, samples, runs or records.
Sequence of UniProt Q2M2I8 (whole entry, looked up): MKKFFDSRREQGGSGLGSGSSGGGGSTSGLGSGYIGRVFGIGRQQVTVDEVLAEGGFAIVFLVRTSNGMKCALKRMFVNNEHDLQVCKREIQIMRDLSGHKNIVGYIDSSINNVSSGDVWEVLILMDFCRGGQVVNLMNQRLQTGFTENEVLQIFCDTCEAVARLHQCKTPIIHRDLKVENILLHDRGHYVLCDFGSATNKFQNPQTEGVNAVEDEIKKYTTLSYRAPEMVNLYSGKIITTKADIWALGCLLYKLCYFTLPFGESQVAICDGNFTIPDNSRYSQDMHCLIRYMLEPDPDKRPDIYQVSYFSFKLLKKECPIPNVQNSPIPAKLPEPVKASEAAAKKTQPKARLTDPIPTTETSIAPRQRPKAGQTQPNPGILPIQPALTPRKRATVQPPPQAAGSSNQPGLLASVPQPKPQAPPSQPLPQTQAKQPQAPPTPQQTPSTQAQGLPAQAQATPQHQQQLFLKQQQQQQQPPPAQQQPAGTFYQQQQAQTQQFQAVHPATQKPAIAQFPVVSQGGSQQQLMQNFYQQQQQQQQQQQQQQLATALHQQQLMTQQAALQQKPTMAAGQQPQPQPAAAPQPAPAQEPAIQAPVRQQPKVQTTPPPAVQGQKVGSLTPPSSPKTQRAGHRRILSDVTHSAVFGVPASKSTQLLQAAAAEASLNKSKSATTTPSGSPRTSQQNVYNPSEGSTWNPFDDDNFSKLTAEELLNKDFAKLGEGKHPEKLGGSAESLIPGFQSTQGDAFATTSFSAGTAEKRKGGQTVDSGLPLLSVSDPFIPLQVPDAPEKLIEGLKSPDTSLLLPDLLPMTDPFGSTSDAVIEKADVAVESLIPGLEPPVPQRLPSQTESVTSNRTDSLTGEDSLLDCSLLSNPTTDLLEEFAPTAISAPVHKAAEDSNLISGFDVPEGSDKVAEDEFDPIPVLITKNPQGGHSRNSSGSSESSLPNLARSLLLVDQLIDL

Series 1
SMILES: CC(=O)N[C@@H](Cc1c[nH]c2ccccc12)C(=O)N[C@@H](CCC(=O)C=[N+]=[N-])C(=O)OC(C)C
Measurement: tumour volume
mice, MC-38 tumour rechallenge; 1 mg/kg, day 64 after injection: 0 mm3
mice, MC-38 tumour rechallenge; 1 mg/kg, day 67 after injection: 0 mm3
mouse, EL4 tumour; subcutaneous, 1 mg/kg, day 17: 0 mm3
mouse, EL4 tumour; subcutaneous, 1 mg/kg, day 11: 156 mm3 and 32.3 mm3 and 28.8 mm3 and 298 mm3 and 0 mm3 and 311 mm3
mice, MC-38 tumour rechallenge; 0.26 mg/kg, day 35 after injection: 0 mm3
C57BL/6 CES1-/- mouse, EL4 tumour; intravenous, 1 mg/kg DON equivalent, treatment day 15, 5 days per week: 110 mm3 and 113 mm3 and 0 mm3 and 80.9 mm3 and 179 mm3 and 230 mm3 and 84.2 mm3
mouse, EL4 tumour; subcutaneous, 0.1 mg/kg, day 7: 564 mm3 and 400 mm3 and 471 mm3 and 389 mm3 and 896 mm3 and 450 mm3
mice, MC-38 tumour rechallenge; 0.26 mg/kg, day 18 after injection: 0 mm3
mice, MC-38 tumour rechallenge; 0.26 mg/kg, day 50 after injection: 0 mm3
mice, MC-38 tumour rechallenge; 1 mg/kg, day 57 after injection: 0 mm3

Series 2
Organism: Sarcocystis neurona
Effect on: parasite activity
Concentration: 10 µM
Time: 96 h
Measurement: activity class
CS(=O)(=O)OCCCCOS(C)(=O)=O: inactive
COc1ccc(/C=C/C(=O)Nc2ccccc2C(=O)O)cc1OC: inactive
Cc1cn([C@H]2C[C@H](N=[N+]=[N-])[C@@H](CO)O2)c(=O)[nH]c1=O: inactive
C[C@H]1COc2c(N3CCN(C)CC3)c(F)cc3c(=O)c(C(=O)O)cn1c23: inactive
Fc1ccc([C@@H]2CCNC[C@H]2COc2ccc3c(c2)OCO3)cc1: inactive
CC#C[C@]1(O)CC[C@H]2[C@@H]3CCC4=CC(=O)CCC4=C3[C@@H](c3ccc(N(C)C)cc3)C[C@@]21C: inactive
C[C@]12C[C@H](O)[C@H]3[C@@H](CCC4=CC(=O)CC[C@@]43C)[C@@H]1CC[C@@H]2C(=O)CO: inactive
CN1CCN(CC/C=C2/c3ccccc3Sc3ccc(S(=O)(=O)N(C)C)cc32)CC1: active
Cc1ccc(-c2cc(C(F)(F)F)nn2-c2ccc(S(N)(=O)=O)cc2)cc1: inactive
CN1CCN2c3ncccc3Cc3ccccc3C2C1 (stereo not drawn): inactive
O=C(CCCN1CCC(O)(c2ccc(Cl)cc2)CC1)c1ccc(F)cc1: inactive

Series 3
Organism: Plasmodium berghei
Action: inhibitor
Cell line: Huh-7
Strain: GFP-expressing, liver stage
Concentration: 10 µM
Time: 24 h
Relative to: untreated control
Measurement: infection rate
O=c1[nH]c(=O)n([C@H]2C[C@H](O)[C@@H](CO)O2)cc1C(F)(F)F: 81.8%
CN(C)[C@@H]1C(O)=C(C(N)=O)C(=O)[C@@]2(O)C(O)=C3C(=O)c4c(O)cccc4[C@@](C)(O)[C@H]3[C@H](O)[C@@H]12: 91.2%
CN(C)CCc1c[nH]c2ccc(Cn3cncn3)cc12: 117%
NNCCc1ccccc1: 81.9%
Cc1cc(C)nc(NS(=O)(=O)c2ccc(N)cc2)n1: 123%
CN1CCCN=C1COC(=O)C(O)(c1ccccc1)C1CCCCC1 (stereo not drawn): 91.6%
Nc1ncnc2c1ncn2[C@@H]1O[C@H](CO)[C@@H](O)[C@@H]1O: 67%
COc1ccnc(C[S+]([O-])c2nc3cc(OC(F)F)ccc3[nH]2)c1OC (stereo not drawn): 87.5%
CC[C@H]1OC(=O)C[C@@H](O)[C@H](C)[C@@H](O[C@@H]2O[C@H](C)[C@@H](O[C@H]3C[C@@](C)(O)[C@@H](O)[C@H](C)O3)[C@H](N(C)C)[C@H]2O)[C@@H](CC=O)C[C@@H](C)C(=O)/C=C/C(C)=C/[C@@H]1CO[C@@H]1O[C@H](C)[C@@H](O)[C@@H](OC)[C@H]1OC: 91.9%
Nc1ccc(S(=O)(=O)Nc2ccccn2)cc1: 108%
CC(=O)OCC(=O)[C@@]1(O)CC[C@H]2[C@@H]3CCC4=CC(=O)C=C[C@]4(C)[C@H]3[C@@H](O)C[C@@]21C: 110%
OCCN1CCN(CCCN2c3ccccc3Sc3ccc(Cl)cc32)CC1: 37%
CC(CN1c2ccccc2Sc2ccccc21)N(C)C (stereo not drawn): 69.9%
C[C@@H]1O[C@@H](OC[C@H]2O[C@@H](Oc3c(-c4ccc(O)c(O)c4)oc4cc(O)cc(O)c4c3=O)[C@H](O)[C@@H](O)[C@@H]2O)[C@H](O)[C@H](O)[C@H]1O: 102%
CCC[C@H](N[C@@H](C)C(=O)N1[C@H](C(=O)O)C[C@@H]2CCCC[C@@H]21)C(=O)OCC: 111%
c1ccc2[nH]c(-c3cscn3)nc2c1: 90.7%

Single results of other studies
C[C@H](NC(=O)Nc1cc2[nH]ncc2c(CO)n1)c1ccccn1 — remaining binding (AAK1 (Homo sapiens, UniProt Q2M2I8); binding; 1 µM): 100%
Cn1cncc1[C@@](O)(COc1ccc(C#N)cc1-c1ccc(OC(F)(F)F)cc1)c1ccc(C#N)cc1 — mitotic cells (HEK293T; high-content imaging; 10 µM, 0 h): 83.3% and 78.4%

A few entries again (series 2):
Cc1cn([C@H]2C[C@H](N=[N+]=[N-])[C@@H](CO)O2)c(=O)[nH]c1=O: inactive
C[C@H]1COc2c(N3CCN(C)CC3)c(F)cc3c(=O)c(C(=O)O)cn1c23: inactive
Fc1ccc([C@@H]2CCNC[C@H]2COc2ccc3c(c2)OCO3)cc1: inactive
CC#C[C@]1(O)CC[C@H]2[C@@H]3CCC4=CC(=O)CCC4=C3[C@@H](c3ccc(N(C)C)cc3)C[C@@]21C: inactive
